Measured values pooled from the literature.
A part holds a random share of what one study measured. Positions count from the first letter of the parent shown.

Block 1 — target: NFE2L1, bZIP domain (human); technique: DHFR protein complementation; medium: yeast; baseline: wild-type JUN-FOS pair; reading: higher = stronger binding
Notes: single substitutions, most at no-binding floor
Starting sequence: JUN, bZIP domain (human); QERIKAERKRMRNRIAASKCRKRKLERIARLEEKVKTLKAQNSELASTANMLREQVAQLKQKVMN; partner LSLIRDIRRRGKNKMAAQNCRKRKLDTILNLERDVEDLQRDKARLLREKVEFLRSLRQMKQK
| Variant | binding fitness [natural log] |
| --- | --- |
| S43C | -1.21 |
| L45C | -1.44 |
| T48E | -1.49 |
| S47Y | -1.51 |
| E33L | -1.47 |
| Q41F | -1.44 |
| K39H | -1.43 |
| T37G | -1.48 |
| E44L | -1.41 |
| I28W | -1.55 |
| L59R | -1.55 |
| L59W | -1.5 |
| L52S | -1.48 |
| Q41V | -1.53 |
| E44H | -1.36 |
| T37V | -1.26 |
| A49R | -1.26 |
| N42L | -1.47 |
| E33T | -1.43 |
| A40V | -1.49 |
| L52D | -1.41 |
| K34C | -1.42 |
| E54R | -1.47 |
| A49T | -1.32 |
| E32R | -1.43 |

Block 2 — technique: DHFR PCA, dose-response; medium: yeast; notes: Hill fit, mean, not affinity; together with: (+)-ABA, dose series; reading: lower = more sensitive
Target: ABI1, truncated, D143A, DHFR fusion (Arabidopsis thaliana, UniProt P49597)
Starting sequence: PYL1, truncated, DHFR fusion (Arabidopsis thaliana, UniProt Q8VZS8); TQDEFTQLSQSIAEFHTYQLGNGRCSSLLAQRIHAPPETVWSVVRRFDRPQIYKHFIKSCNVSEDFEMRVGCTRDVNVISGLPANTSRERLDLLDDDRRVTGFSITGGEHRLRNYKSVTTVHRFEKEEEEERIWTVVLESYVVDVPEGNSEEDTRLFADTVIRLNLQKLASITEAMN
| Variant | ABA EC50 |
| --- | --- |
| I133C | 1.83 µM |
| T154S | 126 µM |
| E127S | 2.13 µM |
| H122V | 165 µM |
| V142M | 3.79 µM |
| Q31R | 6.3 µM |
| Q19M | 4.7 µM |
| T17R | 9.44 µM |
| T101G | 273 µM |
| R98Q | 4.81 µM |
| R46E | 10.7 µM |
| V137I | 13.2 µM |
| S171H | 1.48 µM |
| T86S | 0.701 µM |
| T73F | 2.13 µM |
| V118N | 15.7 µM |
| E130I | 2.96 µM |
| Q10W | 8.75 µM |
| V43C | 25.3 µM |
| Q51T | 27.7 µM |
| S150W | 210 µM |
| T39N | 5.89 µM |

Block 3 — technique: protein-binding microarray; molecule type: double-stranded DNA, one strand shown; medium: in vitro; tested at: 250 nM; notes: 60-bp whole probe; together with: salmon DNA 0.4 mg/ml; baseline: random background probes; reading: higher = stronger binding; all sequences stand within: GCCTAGCAC … GTCTTGATTCGCTTGACGCTGCTG
Target: Interferon regulatory factor 5, full length, phosphomimetic (IRF5, Homo sapiens, UniProt Q13568-2, residues 1-514, K96S/S451D/S453D/S456D/S462D)
| Strand | log fluorescence [z-score] |
| --- | --- |
| TTAGGAATGGACACTGGGTTAGTGCTA | -0.336 |
| TTAGATCTCGGTATCGGTTAGTGCTAG | 5.62 |
| TGGGAAATTCCTCTGAGGCAGTGCTAG | -0.354 |
| TTAGGACTGGACACCGGGTTAGTGCTA | -0.603 |
| GACGGTTTCGGTTCCGGAACGTGCTAG | 9.96 |
| GACGATCTCGGGTTTCGAGACGTGCTA | 1.44 |
| GACGGTTTCCTTATACTGACGTGCTAG | 0.727 |
| GATGATCTCAGTTTCGAGACGTGCTAG | 4.87 |
| TTAGCTCTCAGTATCGATTAGTGCTAG | 6.58 |
| TGTGAAACCTTCAGGCACGTGTGCTAG | -0.0314 |
| CTAGGTTTCGGTTTCGGTTAGTGCTAG | 12 |
| TCAAATGTCCTCCTCTCACTGTGCTAG | -0.16 |
| ATACTGAGAAAGCACTGGACGTGCTAG | 0.128 |
| GACGATTCCAGTTTCGGGACGTGCTAG | 6.31 |
| GACGGTCTCGGTCTCGGGCCGTGCTAG | 0.0951 |
| ATGGCTTTGCCTTTTGCTTTGTGCTAG | -0.0323 |
| GAAGATGTGTATATGACAATGTGCTAG | -0.0388 |
| TTAGGTTCACTTTTCCTTTAGTGCTAG | 0.88 |
| GACGGTTTCGAGTTTCGGGACGTGCTA | 7.14 |
| GACGGACTGGATACTGGGGACGTGCTA | -0.514 |

Block 4 — target: CCNE2, cyclin fold, Cln2 fusion (human); technique: yeast growth competition, sequencing; medium: yeast; notes: strong parent motif; baseline: not given; reading: higher = stronger binding
Starting sequence: E2F1 docking peptide (human); PPVKRRLDFETDH
| Variant | normalised enrichment score |
| --- | --- |
| V3W | 4.76 |
| D8L | 5.95 |
| D12Y | 6.65 |
| D8V | 5.21 |
| P2I | 4.15 |
| D12P | 6.35 |
| R6C | 3.08 |
| D12A | 6.29 |
| F9Q | 0.567 |
| D12Q | 6.1 |
| R5K | 1.93 |
| K4Q | 2.89 |
| D8E | 5.38 |
| E10Q | 5.87 |
| K4L | 1.2 |
| T11R | 5.76 |
| D8W | 5.8 |
| L7W | 0.418 |
| F9E | 0.859 |

Block 5 — Molecule: B1 (TRIM43 RING domain); technique: yeast two-hybrid; medium: yeast; notes: mostly zero background; baseline: not given; reading: higher = stronger interaction
B1: TRIM43 RING domain (UniProt Q96BQ3); chain FSHAFQKELTCVICLNYLVDPVTICCGHSFCRPCLCLSWEEAQSPANCPACREPSPKMDFKT
| target | lacZ reporter activity |
| --- | --- |
| BIRC6 UBC core domain (UniProt Q9NR09) | 0 |
| UBE2B UBC core domain (UniProt P63146) | 0 |
| UBE2L3 UBC core domain (UniProt P68036) | 0 |
| UBE2T UBC core domain (UniProt Q9NPD8) | 0 |
| UBE2S UBC core domain (UniProt Q16763) | 0 |
| UBE2D1 UBC core domain (UniProt P51668) | 0 |
| UBE2O UBC core domain (UniProt Q9C0C9) | 0 |
| UBE2E3 UBC core domain (UniProt Q969T4) | 0 |
| UBE2M UBC core domain (UniProt P61081) | 0 |
| UBE2G1 UBC core domain (UniProt P62253) | 0 |
| UBE2I UBC core domain (UniProt P63279) | 0 |
| UBE2C UBC core domain (UniProt O00762) | 0 |
| UBE2J2 UBC core domain (UniProt Q8N2K1) | 0 |
| UBE2Q1 UBC core domain (UniProt Q7Z7E8) | 0 |
| UBE2R2 UBC core domain (UniProt Q712K3) | 0 |
| UBE2Z UBC core domain (UniProt Q9H832) | 0 |

For quick reference, copied from above (block 5):
| target | lacZ reporter activity |
| --- | --- |
| BIRC6 UBC core domain (UniProt Q9NR09) | 0 |
| UBE2B UBC core domain (UniProt P63146) | 0 |
| UBE2L3 UBC core domain (UniProt P68036) | 0 |
| UBE2T UBC core domain (UniProt Q9NPD8) | 0 |
| UBE2S UBC core domain (UniProt Q16763) | 0 |
| UBE2D1 UBC core domain (UniProt P51668) | 0 |
| UBE2O UBC core domain (UniProt Q9C0C9) | 0 |
| UBE2E3 UBC core domain (UniProt Q969T4) | 0 |
| UBE2M UBC core domain (UniProt P61081) | 0 |
| UBE2G1 UBC core domain (UniProt P62253) | 0 |
| UBE2I UBC core domain (UniProt P63279) | 0 |
| UBE2C UBC core domain (UniProt O00762) | 0 |
| UBE2J2 UBC core domain (UniProt Q8N2K1) | 0 |
| UBE2Q1 UBC core domain (UniProt Q7Z7E8) | 0 |
| UBE2R2 UBC core domain (UniProt Q712K3) | 0 |
